Results pooled from the literature.
Lines come from different studies, so protocols differ. ± marks the error that the study gave.
AURKA: Aurora kinase A (AURKA, Homo sapiens, UniProt O14965)
Chain of UniProt O14965 (whole entry, looked up): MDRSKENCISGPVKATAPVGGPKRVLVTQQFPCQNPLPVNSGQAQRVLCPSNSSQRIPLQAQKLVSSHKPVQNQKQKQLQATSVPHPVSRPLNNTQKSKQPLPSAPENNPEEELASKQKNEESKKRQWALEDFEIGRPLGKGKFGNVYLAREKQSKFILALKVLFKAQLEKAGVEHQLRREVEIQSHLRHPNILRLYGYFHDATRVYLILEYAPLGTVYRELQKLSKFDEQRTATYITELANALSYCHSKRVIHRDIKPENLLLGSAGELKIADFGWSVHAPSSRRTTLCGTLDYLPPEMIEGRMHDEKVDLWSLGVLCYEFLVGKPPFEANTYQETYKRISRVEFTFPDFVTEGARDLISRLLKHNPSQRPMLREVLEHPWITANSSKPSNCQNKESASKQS
Chain of UniProt A2RI47 (whole entry, looked up): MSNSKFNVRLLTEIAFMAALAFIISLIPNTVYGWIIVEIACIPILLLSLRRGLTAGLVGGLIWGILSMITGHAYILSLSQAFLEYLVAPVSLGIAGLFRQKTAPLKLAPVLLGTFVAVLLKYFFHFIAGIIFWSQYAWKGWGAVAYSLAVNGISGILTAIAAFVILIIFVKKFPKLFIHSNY
Chain of UniProt Q9HC29 (whole entry, looked up): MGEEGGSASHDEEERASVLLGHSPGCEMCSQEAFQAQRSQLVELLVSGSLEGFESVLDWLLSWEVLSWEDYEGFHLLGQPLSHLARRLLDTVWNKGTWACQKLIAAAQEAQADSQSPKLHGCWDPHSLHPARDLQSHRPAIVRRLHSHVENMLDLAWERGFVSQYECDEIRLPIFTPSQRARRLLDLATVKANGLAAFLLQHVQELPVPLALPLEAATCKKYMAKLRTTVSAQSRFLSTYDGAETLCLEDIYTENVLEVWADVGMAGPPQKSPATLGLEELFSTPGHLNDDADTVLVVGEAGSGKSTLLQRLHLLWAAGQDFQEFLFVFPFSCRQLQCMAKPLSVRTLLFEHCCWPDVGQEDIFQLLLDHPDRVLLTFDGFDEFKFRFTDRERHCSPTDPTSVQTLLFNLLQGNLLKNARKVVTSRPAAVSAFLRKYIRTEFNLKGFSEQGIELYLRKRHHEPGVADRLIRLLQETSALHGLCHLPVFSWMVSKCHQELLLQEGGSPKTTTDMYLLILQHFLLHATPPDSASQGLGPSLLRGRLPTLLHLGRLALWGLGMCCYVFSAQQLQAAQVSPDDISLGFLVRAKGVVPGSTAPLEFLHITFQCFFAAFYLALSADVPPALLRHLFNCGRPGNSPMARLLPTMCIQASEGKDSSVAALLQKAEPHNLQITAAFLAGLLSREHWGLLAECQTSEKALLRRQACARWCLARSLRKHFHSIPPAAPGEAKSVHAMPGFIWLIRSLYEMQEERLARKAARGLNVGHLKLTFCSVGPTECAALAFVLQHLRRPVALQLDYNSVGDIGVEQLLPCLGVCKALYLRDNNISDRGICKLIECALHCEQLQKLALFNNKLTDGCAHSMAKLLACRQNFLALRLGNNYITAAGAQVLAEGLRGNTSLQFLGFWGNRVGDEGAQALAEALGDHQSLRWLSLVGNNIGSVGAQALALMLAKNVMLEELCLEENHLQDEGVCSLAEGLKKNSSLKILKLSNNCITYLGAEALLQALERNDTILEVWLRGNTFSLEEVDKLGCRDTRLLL
Chain of UniProt P08172 (whole entry, looked up): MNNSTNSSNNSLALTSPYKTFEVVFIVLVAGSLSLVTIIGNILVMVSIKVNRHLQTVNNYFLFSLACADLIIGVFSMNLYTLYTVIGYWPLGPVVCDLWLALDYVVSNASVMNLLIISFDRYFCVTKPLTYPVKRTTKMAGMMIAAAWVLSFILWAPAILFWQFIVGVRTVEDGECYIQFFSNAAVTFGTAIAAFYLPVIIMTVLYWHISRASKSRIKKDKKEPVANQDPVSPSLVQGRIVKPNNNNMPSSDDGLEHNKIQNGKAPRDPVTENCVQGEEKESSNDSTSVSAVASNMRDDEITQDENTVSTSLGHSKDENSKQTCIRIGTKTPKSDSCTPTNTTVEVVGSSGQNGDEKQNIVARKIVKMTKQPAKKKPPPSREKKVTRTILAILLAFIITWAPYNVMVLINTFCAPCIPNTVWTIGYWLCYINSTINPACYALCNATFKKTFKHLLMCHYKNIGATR
Chain of UniProt Q16531 (whole entry, looked up): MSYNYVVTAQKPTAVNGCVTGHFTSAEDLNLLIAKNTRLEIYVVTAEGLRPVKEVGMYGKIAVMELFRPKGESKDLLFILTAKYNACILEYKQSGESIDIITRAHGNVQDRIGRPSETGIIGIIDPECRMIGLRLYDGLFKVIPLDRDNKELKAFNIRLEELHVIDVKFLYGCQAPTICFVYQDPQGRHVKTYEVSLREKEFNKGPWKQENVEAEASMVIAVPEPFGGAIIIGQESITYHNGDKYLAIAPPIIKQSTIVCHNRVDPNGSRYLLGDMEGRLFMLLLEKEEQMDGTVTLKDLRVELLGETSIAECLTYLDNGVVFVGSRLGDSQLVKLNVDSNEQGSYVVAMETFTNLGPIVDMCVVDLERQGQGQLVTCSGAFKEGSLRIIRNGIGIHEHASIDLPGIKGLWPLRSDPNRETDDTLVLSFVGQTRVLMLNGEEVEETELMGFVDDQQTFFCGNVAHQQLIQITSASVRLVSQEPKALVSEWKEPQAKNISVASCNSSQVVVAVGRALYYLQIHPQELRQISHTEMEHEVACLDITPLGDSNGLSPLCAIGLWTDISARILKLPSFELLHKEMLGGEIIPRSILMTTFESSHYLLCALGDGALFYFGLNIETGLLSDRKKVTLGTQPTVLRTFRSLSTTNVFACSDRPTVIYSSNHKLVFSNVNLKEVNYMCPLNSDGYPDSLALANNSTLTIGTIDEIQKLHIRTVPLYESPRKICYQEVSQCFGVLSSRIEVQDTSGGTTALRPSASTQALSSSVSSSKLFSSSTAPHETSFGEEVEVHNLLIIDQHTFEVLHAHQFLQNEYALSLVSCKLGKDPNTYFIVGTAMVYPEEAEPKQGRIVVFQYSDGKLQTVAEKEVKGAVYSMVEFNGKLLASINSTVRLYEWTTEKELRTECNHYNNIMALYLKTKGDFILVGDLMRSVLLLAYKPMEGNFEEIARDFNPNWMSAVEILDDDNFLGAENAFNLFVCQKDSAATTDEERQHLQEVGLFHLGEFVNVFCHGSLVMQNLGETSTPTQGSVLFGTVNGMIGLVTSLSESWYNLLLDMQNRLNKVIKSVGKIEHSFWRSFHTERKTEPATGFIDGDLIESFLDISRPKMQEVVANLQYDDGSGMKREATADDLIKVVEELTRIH
Chain of UniProt Q9RUB5 (whole entry, looked up): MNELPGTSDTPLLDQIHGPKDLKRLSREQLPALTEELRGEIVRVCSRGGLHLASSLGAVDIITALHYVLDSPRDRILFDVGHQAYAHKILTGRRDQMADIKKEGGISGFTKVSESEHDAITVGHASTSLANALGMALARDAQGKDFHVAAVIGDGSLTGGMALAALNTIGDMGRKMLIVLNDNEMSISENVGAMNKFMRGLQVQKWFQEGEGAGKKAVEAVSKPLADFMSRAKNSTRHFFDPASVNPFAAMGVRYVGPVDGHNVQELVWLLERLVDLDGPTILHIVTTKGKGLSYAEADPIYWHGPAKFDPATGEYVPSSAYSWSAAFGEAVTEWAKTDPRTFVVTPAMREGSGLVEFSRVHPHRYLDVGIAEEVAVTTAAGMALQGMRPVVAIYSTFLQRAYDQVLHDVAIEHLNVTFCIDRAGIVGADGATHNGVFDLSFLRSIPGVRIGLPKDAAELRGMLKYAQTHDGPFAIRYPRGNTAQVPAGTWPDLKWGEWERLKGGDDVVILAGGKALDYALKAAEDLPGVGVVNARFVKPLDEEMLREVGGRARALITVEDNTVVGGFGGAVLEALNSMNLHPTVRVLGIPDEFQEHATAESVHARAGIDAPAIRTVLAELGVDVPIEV
Chain of UniProt P51449 (whole entry, looked up): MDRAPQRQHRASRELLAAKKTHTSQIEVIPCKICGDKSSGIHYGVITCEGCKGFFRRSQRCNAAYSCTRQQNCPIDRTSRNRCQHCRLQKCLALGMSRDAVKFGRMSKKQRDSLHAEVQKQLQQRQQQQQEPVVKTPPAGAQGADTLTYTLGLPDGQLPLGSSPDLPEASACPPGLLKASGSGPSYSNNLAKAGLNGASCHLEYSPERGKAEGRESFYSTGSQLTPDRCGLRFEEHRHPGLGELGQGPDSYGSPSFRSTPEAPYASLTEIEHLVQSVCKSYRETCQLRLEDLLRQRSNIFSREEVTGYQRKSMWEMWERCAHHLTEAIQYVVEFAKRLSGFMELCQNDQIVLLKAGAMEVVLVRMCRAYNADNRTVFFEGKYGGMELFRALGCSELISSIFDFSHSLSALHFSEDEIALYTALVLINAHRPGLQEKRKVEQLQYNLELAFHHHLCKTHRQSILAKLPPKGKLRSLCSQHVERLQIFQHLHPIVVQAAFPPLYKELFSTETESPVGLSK
Chain of UniProt P19438 (whole entry, looked up): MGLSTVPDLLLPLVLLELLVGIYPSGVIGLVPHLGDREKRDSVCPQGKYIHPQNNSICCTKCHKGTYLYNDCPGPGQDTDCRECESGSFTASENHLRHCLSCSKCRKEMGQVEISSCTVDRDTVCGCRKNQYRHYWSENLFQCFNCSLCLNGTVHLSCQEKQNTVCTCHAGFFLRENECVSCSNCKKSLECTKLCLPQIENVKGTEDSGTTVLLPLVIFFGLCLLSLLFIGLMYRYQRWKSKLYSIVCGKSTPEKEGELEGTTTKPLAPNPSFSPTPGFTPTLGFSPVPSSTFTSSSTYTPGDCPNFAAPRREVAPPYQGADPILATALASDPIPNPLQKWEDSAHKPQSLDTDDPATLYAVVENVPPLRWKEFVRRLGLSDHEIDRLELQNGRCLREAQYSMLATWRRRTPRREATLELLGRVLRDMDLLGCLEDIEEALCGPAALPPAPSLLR

Cc1ncc(Cc2csc(C=NNC(=O)Cc3cccc(O)c3)c2C)c(N)n1 (mixture of isomers) — Kd (Thiamine transporter ThiT (Lactococcus lactis subsp. cremoris, UniProt A2RI47); binding, ITC): 28.8 µM
CCOc1cccc([C@@H]2CC(=O)Nc3c2c(C)nn3-c2ccc3nncn3n2)c1 — Kd (DNA damage-binding protein 1 (DDB1, Homo sapiens, UniProt Q16531); binding, SPR): 2 µM
CN(C)CCNC(=O)c1cccc2c(NCCCCc3c(N)nc(N)nc3N)c3ccccc3nc12 — Kd (human cardiac troponin T pre-mRNA 18-nt fragment; binding, ITC; 25 °C): 334 ± 11 µM
Nc1ncc(/C=N/NC(=O)Cc2c[nH]c3ccccc23)cn1 — Kd (1-deoxy-D-xylulose-5-phosphate synthase (dxs, Deinococcus radiodurans, UniProt Q9RUB5); binding, SPR): 270 µM
Cc1[nH]c2c(O)c3c(c(O)c2c1C(=O)NC1CCNCC1)C(=O)c1ccccc1C3=O — Kd (AURKA; binding, BLI): 32.4 µM
COC(=O)CC[C@H](NC(=O)[C@H](C)NC(=O)[C@@H](C)O[C@H]1[C@H](O)[C@@H](CN)OC(O)[C@@H]1NC(C)=O)C(N)=O (stereo partly drawn) — Kd (Nucleotide-binding oligomerization domain-containing protein 2 (NOD2, Homo sapiens, UniProt Q9HC29); binding; pH 6.5): 0.002 to 0.01 µM
N[C@@H](CN[C@@H](CN[C@@H](CC(=O)O)C(=O)O)C(=O)O)C(=O)O — Kd (Zn2+; binding, PAR competition; 3 h, pH 7.5, 25 °C): 0.0001 ± 2e-05 µM
[3H]CC([3H])C(=O)NCc1cc(C(=O)NCCN2CCC(N3CCC(n4c(=O)[nH]c5ccccc54)CC3)CC2)cc(C(=O)NCCN2CCN(CCCCC3CCN(CC(=O)N4c5ccccc5NC(=O)c5ccccc54)CC3)CC2)c1 (stereo not drawn) — Kd (Muscarinic acetylcholine receptor M2 (CHRM2, Homo sapiens, UniProt P08172); association and dissociation kinetics; CHO cell homogenates; 23 °C): 7.2e-05 ± 2e-06 µM
COCCOC(=O)Nc1ccc2c(c1)c(Cc1ccc(C(=O)NS(=O)(=O)c3ccc(C(F)(F)F)cc3)cc1OC)cn2C — Kd (Tumor necrosis factor receptor superfamily member 1A, extracellular domain (Homo sapiens, UniProt P19438); binding, 19F NMR; PBS; pH 7.4): 12 µM
NC(=O)CN(CC(=O)O)CC(=O)O — Kd (Zn2+; binding, ITC; pH 7.0, 25 °C): 0.231 ± 0.01 µM
Cc1oc2c(O)c3c(c(O)c2c1C(=O)N1CCC(N)C1)C(=O)c1ccccc1C3=O (stereo not drawn) — Kd (AURKA; binding, BLI): 55.7 µM
C[C@H](CCC(=O)NCc1ccccc1)[C@H]1CC[C@H]2[C@@H]3CC[C@@H]4CC(=O)CC[C@]4(C)[C@H]3CC[C@]12C — Kd (Nuclear receptor ROR-gamma (RORC, Homo sapiens, UniProt P51449); binding, MST): 0.724 µM

Repeated from above:
Cc1oc2c(O)c3c(c(O)c2c1C(=O)N1CCC(N)C1)C(=O)c1ccccc1C3=O (stereo not drawn) — Kd (AURKA; binding, BLI): 55.7 µM
